# Results from different studies.
# “And” joins repeats or separate records; there may be more than shown. ± marks the error that the study gave.
# U2AF2: U2AF2 148-342 (Homo sapiens, UniProt P26368)
# Chain of UniProt P26368 (whole entry, looked up): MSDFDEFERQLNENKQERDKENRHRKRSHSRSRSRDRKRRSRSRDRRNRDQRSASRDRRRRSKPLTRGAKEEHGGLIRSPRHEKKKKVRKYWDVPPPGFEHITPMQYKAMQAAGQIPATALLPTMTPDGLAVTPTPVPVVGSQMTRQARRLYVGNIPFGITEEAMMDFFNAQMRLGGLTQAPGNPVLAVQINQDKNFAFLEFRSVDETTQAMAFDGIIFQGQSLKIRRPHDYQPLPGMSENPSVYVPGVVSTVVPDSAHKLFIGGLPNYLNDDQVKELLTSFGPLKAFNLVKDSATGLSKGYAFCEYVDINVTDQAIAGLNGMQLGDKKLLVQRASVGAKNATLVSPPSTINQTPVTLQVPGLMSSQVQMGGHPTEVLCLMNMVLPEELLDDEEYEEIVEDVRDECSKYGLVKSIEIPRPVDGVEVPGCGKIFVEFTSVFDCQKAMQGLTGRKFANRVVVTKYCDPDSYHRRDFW
# T1: TOA1/TOA2 1-286; 1-122 (Saccharomyces cerevisiae); chain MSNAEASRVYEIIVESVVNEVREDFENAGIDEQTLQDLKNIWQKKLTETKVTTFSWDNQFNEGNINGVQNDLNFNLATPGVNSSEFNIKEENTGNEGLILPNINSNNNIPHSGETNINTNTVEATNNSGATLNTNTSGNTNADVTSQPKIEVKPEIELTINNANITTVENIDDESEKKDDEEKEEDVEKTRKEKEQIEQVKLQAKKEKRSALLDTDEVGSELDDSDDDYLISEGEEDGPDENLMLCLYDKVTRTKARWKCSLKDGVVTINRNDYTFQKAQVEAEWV; chain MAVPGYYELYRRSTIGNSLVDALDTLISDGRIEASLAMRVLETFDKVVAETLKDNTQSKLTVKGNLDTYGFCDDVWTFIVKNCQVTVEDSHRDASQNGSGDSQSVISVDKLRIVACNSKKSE
# B1: human SMC3; sequence looked up; chain MYIKQVIIQGFRSYRDQTIVDPFSSKHNVIVGRNGSGKSNFFYAIQFVLSDEFSHLRPEQRLALLHEGTGPRVISAFVEIIFDNSDNRLPIDKEEVSLRRVIGAKKDQYFLDKKMVTKNDVMNLLESAGFSRSNPYYIVKQGKINQMATAPDSQRLKLLREVAGTRVYDERKEESISLMKETEGKREKINELLKYIEERLHTLEEEKEELAQYQKWDKMRRALEYTIYNQELNETRAKLDELSAKRETSGEKSRQLRDAQQDARDKMEDIERQVRELKTKISAMKEEKEQLSAERQEQIKQRTKLELKAKDLQDELAGNSEQRKRLLKERQKLLEKIEEKQKELAETEPKFNSVKEKEERGIARLAQATQERTDLYAKQGRGSQFTSKEERDKWIKKELKSLDQAINDKKRQIAAIHKDLEDTEANKEKNLEQYNKLDQDLNEVKARVEELDRKYYEVKNKKDELQSERNYLWREENAEQQALAAKREDLEKKQQLLRAATGKAILNGIDSINKVLDHFRRKGINQHVQNGYHGIVMNNFECEPAFYTCVEVTAGNRLFYHIVDSDEVSTKILMEFNKMNLPGEVTFLPLNKLDVRDTAYPETNDAIPMISKLRYNPRFDKAFKHVFGKTLICRSMEVSTQLARAFTMDCITLEGDQVSHRGALTGGYYDTRKSRLELQKDVRKAEEELGELEAKLNENLRRNIERINNEIDQLMNQMQQIETQQRKFKASRDSILSEMKMLKEKRQQSEKTFMPKQRSLQSLEASLHAMESTRESLKAELGTDLLSQLSLEDQKRVDALNDEIRQLQQENRQLLNERIKLEGIITRVETYLNENLRKRLDQVEQELNELRETEGGTVLTATTSELEAINKRVKDTMARSEDLDNSIDKTEAGIKELQKSMERWKNMEKEHMDAINHDTKELEKMTNRQGMLLKKKEECMKKIRELGSLPQEAFEKYQTLSLKQLFRKLEQCNTELKKYSHVNKKALDQFVNFSEQKEKLIKRQEELDRGYKSIMELMNVLELRKYEAIQLTFKQVSKNFSEVFQKLVPGGKATLVMKKGDVEGSQSQDEGEGSGESERGSGSQSSVPSVDQFTGVGIRVSFTGKQGEMREMQQLSGGQKSLVALALIFAIQKCDPAPFYLFDEIDQALDAQHRKAVSDMIMELAVHAQFITTTFRPELLESADKFYGVKFRNKVSHIDVITAEMAKDFVEDDTTHG
# Chain of UniProt Q64663 (whole entry, unmodified, looked up): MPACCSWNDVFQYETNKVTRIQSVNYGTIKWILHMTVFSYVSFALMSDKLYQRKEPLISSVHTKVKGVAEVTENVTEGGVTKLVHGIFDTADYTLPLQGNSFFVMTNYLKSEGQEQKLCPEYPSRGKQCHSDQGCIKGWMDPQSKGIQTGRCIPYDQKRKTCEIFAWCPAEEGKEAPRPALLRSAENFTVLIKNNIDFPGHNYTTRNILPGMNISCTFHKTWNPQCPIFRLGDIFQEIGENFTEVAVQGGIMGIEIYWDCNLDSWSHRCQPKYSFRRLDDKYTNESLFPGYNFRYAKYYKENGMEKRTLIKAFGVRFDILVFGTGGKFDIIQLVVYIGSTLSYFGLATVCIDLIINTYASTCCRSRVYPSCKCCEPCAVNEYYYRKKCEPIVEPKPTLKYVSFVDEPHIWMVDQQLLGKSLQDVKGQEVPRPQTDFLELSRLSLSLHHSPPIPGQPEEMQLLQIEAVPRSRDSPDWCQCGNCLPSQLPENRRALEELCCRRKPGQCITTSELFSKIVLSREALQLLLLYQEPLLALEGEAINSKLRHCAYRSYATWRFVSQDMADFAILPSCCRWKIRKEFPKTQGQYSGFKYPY
# Chain of UniProt P13393 (whole entry, looked up): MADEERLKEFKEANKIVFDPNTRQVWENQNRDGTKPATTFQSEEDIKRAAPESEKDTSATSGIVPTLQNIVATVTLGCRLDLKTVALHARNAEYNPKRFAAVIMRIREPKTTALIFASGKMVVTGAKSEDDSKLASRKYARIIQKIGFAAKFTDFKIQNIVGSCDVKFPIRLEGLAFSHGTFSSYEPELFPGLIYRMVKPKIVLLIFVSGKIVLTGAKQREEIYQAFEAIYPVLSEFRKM
# Chain of UniProt Q00535 (whole entry, looked up): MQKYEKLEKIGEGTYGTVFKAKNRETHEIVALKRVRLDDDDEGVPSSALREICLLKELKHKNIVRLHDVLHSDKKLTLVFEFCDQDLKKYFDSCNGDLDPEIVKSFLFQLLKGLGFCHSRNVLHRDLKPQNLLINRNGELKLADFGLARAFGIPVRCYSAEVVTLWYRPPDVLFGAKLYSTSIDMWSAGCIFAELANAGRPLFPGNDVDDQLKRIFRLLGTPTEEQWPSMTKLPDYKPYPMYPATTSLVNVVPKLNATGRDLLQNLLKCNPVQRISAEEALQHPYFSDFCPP
Substance,tested on,assay,test system,conditions,scale,endpoint,result
CUUCUUGUU (ssRNA),U2AF2,sequencing of bound RNA,RNA,motif only,,Kd,8370 nM
B1 (human SMC3),CYB5R4 knockout human cells,"PP4 interaction, 3xFLAG-PP4C IP-MS",,concentration not given,relative to: CYB5R4 KO over parental,log2 fold change,0.28
AAACCUCUUUUCUUUAUAAA (ssRNA),U2AF2,MST,RNA,,,Kd,4190 ± 1430 nM
GGTGAGGGTACTTATGCGGTTGTTTACTTGGGTTGTCAAGTCAATCGGTCC (dsDNA; 5'-amino-C6 primer),"T1, TOA1/TOA2 1-286; 1-122 (Saccharomyces cerevisiae)",array,"double-stranded DNA, one strand shown",TFIIA alone,,Kd,140 ± 62.5 nM
human ME2 T60S,,"enzyme activity, NADH absorbance",,"with fumarate 3 mM, with: L-malate varied",,Hill coefficient,1.4 ± 0.17
BzATP,"P2X purinoceptor 7 (P2rx7, Rattus norvegicus, UniProt Q64663)","ion current, agonist, two-electrode voltage clamp",Xenopus laevis oocytes,0.14 µM,relative to: highest concentration response,normalized current,0.00936 and 0.1 and 0.0173
CTCAGGAATTCCCATAAAGTAATGTGGAGCTCAGTTCAAGTCAATCGGTCC (dsDNA; 5'-amino-C6 primer),"SPT15 full length assumed (Saccharomyces cerevisiae, UniProt P13393)",array,"double-stranded DNA, one strand shown",TBP alone,,Kd,19.4 ± 1.65 nM
KEAFWDRCLSVINLMSSKMGQINA,"Cyclin-dependent kinase 5, with p25 (CDK5, Homo sapiens, UniProt Q00535)","phosphotransferase activity, radiometric",peptide,"concentration not given, 10% DMSO, with: histone substrate",relative to: p5-WT peptide,activity change,38%

# For quick reference, copied from above:
Substance,tested on,assay,test system,conditions,scale,endpoint,result
human ME2 T60S,,"enzyme activity, NADH absorbance",,"with fumarate 3 mM, with: L-malate varied",,Hill coefficient,1.4 ± 0.17
